Measured values collected from several papers.
Protocols differ between the studies behind these lines. Several values in a cell are separate wells, animals, samples, runs or records. Numbers after ± are the reported error.
PTGER1: Prostaglandin E2 receptor EP1 subtype (PTGER1, Homo sapiens, UniProt P34995)
Sequence of UniProt P34995 (whole entry, looked up): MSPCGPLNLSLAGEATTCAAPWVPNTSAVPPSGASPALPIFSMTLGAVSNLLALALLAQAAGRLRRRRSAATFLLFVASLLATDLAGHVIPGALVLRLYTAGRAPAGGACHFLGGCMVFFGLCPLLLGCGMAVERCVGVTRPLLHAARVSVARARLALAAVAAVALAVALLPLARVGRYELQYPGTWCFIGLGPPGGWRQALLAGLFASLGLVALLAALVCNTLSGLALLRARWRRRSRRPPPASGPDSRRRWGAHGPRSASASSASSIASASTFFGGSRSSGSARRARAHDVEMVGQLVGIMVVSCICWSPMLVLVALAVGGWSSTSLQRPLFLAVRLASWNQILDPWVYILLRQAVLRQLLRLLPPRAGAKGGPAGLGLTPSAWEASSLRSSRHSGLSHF
NR1I2: Nuclear receptor subfamily 1 group I member 2 (NR1I2, Homo sapiens, UniProt O75469)
Sequence of UniProt O75469 (whole entry, looked up): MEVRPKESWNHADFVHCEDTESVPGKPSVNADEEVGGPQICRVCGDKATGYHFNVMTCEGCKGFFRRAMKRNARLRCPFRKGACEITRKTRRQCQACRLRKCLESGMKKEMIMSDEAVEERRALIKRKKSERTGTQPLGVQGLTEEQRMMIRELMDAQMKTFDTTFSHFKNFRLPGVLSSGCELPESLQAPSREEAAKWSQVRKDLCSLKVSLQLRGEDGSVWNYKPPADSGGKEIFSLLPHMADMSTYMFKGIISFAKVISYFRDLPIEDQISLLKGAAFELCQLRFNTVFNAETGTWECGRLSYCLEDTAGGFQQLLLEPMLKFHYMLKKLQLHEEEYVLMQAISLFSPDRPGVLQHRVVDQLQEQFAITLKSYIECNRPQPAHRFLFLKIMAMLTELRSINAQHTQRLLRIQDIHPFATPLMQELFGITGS
CDK9 with cyclin T1: Cyclin-dependent kinase 9, with cyclin T1 (CDK9, Homo sapiens, UniProt P50750)
Sequence of UniProt P50750 (whole entry, looked up): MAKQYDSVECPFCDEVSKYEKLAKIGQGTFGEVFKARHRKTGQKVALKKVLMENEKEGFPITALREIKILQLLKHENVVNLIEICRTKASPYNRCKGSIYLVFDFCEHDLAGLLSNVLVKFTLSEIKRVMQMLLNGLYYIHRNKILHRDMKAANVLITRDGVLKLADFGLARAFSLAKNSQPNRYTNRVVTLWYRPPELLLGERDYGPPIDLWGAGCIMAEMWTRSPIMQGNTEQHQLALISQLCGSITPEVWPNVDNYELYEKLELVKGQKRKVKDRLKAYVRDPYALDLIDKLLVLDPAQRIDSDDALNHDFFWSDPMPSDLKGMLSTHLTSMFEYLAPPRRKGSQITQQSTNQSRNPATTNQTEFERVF
Sequence of UniProt O14764 (whole entry, looked up): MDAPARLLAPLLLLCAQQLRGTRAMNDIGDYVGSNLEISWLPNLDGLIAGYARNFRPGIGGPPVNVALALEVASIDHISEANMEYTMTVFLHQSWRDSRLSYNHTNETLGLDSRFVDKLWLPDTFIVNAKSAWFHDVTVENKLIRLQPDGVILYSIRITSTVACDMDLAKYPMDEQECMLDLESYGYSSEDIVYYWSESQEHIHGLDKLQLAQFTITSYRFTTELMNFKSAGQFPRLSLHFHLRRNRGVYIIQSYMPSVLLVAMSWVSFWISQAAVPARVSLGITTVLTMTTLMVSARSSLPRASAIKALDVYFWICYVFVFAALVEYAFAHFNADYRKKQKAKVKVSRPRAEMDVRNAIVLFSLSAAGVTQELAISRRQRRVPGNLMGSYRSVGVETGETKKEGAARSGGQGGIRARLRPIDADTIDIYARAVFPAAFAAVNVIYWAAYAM
Sequence of UniProt P48169 (whole entry, looked up): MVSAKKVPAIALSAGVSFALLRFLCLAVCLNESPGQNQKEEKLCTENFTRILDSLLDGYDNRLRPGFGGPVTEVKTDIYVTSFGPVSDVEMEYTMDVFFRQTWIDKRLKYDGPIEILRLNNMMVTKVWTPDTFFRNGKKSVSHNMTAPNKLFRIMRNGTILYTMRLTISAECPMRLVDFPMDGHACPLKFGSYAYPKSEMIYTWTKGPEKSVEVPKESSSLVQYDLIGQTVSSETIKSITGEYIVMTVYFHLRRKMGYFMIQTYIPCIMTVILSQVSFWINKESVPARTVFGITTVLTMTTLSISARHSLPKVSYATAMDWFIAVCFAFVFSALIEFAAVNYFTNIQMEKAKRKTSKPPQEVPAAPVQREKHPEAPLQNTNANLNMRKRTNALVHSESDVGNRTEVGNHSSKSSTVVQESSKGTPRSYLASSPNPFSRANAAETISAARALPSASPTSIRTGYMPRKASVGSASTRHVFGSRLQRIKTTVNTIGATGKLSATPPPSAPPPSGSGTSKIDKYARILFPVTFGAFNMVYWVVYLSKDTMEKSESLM
Sequence of UniProt Q9Y210 (whole entry, unmodified, looked up): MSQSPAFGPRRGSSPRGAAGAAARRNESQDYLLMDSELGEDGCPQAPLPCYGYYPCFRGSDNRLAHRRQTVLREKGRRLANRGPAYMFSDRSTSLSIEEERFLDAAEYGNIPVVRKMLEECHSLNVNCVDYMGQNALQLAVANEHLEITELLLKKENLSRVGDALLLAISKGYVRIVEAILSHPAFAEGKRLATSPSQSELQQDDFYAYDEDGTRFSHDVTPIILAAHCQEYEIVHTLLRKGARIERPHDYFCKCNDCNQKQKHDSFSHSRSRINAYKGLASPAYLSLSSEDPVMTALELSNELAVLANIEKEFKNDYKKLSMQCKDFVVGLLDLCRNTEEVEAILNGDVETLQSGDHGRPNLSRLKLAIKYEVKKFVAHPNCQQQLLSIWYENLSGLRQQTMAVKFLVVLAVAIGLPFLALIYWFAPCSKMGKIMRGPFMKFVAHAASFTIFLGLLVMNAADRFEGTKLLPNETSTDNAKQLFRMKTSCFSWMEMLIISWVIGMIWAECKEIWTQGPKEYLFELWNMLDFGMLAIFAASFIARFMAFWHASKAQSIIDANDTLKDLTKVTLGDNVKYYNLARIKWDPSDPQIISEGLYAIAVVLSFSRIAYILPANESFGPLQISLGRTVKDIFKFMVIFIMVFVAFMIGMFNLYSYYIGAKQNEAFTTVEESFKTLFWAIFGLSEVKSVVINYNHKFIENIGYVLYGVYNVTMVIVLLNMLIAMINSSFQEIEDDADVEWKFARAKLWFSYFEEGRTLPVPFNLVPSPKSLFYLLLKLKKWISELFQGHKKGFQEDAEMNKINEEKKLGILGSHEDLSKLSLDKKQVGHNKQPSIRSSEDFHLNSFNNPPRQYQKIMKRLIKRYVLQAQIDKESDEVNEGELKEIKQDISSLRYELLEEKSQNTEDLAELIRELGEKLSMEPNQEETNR
Sequence of UniProt P45983 (whole entry, looked up): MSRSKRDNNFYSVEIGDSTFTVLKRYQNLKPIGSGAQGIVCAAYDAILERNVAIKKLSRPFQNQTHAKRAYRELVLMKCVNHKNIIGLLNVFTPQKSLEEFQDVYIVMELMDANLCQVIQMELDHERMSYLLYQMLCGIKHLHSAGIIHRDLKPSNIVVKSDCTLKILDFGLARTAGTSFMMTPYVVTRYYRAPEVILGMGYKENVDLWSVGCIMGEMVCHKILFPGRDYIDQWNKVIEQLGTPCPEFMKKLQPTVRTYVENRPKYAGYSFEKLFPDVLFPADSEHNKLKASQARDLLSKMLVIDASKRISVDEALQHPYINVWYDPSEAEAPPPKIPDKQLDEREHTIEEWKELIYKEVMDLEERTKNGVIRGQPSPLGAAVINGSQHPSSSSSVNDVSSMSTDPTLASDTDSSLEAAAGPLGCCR
Sequence of UniProt Q68D91 (whole entry, looked up): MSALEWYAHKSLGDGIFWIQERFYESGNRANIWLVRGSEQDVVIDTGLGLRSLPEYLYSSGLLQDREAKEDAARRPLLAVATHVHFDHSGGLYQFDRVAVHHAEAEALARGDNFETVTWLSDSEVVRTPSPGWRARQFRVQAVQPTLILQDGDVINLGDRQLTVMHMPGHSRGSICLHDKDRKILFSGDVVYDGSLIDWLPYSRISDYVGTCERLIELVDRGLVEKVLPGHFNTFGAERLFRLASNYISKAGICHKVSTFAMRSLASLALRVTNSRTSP
Sequence of UniProt P50395 (whole entry, looked up): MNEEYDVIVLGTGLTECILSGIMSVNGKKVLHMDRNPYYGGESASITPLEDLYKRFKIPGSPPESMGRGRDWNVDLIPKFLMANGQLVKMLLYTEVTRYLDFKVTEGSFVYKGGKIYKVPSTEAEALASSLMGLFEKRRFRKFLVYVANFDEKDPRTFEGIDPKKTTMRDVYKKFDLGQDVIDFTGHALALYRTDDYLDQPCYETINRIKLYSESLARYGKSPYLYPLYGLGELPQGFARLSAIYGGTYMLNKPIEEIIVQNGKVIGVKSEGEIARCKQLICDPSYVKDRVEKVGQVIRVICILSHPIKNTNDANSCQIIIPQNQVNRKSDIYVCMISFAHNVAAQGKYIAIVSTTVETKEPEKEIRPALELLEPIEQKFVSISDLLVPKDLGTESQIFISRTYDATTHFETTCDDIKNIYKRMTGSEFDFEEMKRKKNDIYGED
Sequence of UniProt O77389 (whole entry, looked up): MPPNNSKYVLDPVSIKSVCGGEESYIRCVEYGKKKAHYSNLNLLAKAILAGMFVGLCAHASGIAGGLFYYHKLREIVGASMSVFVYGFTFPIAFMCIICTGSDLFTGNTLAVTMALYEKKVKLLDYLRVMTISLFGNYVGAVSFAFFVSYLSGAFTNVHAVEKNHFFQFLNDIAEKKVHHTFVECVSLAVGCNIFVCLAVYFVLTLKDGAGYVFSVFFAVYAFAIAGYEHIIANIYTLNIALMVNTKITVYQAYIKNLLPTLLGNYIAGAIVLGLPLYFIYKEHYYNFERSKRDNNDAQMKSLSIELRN
Sequence of UniProt Q9NXA8 (whole entry, looked up): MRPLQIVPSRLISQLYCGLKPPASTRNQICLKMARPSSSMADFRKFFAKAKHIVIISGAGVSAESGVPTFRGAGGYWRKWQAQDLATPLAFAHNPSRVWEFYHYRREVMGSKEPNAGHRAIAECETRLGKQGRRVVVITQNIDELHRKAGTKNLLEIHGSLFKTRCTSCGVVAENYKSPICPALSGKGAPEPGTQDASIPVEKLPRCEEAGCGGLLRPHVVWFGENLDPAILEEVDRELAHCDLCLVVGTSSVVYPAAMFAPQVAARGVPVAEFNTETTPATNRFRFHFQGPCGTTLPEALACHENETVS

O=C(NO)c1cnc(NC2(c3cccc(F)c3)CCCCC2)nc1 — EC50 (MBLAC2 (Homo sapiens, UniProt Q68D91); palmitoyl-CoA hydrolysis, inhibitor; with: [3H]palmitoyl-CoA): < 6.31 nM
N[C@@H](Cc1c[nH]c2ccc(OCc3ccc(-c4cccs4)cc3)cc12)C(=O)O — EC50 (SLC7A5 (Homo sapiens, UniProt Q01650); leucine uptake; HT-29; with: [3H]-L-leucine): 20000 nM
CCCCCCCOc1ccc(CC[C@](N)(CO)COP(=O)(O)O)cc1C(F)(F)F — EC50 (S1PR4 (Homo sapiens, UniProt O95977); calcium signal, agonist): 122 nM
CCCCCCCC/C=C\CCCCCCCC(=O)NCCO — EC50 (Trpv1 (Mus musculus, UniProt Q704Y3); ion current, agonist, whole-cell patch clamp; HEK293; 24 °C, wild type, +80 mV): 350 ± 70 nM
O=C(O)/C=C/c1cccc(NC(=O)c2cc(-c3ccc(F)cc3)ccc2F)c1 — EC50 (PTGER1; calcium signal, agonist, fluorescence): > 10000 nM
COC(=O)[C@]1(C)C=C(C(=O)Nc2cccc(C(=O)Nc3ccc(Nc4nccc(-c5cccnc5)n4)c(C)c3)c2)C(=O)CC1 — EC50 (MAPK8 (Homo sapiens, UniProt P45983); target engagement, NanoBRET; HEK293; 2 h, with: tracer K-5): 3.3 ± 1.7 nM
CO[C@H]1/C=C/O[C@@]2(C)Oc3c(C)c(O)c4c(c3C2=O)C(=O)C(Br)=C(NC(=O)/C(C)=C\C=C\[C@H](C)[C@H](O)[C@@H](C)[C@@H](O)[C@@H](C)[C@H](OC(C)=O)[C@@H]1C)C4=O — EC50 (NR1I2; reporter gene, agonist, CYP3A4 promoter luciferase; 293T; 24 h, 5% charcoal-stripped FBS): 137 ± 40 nM
Cc1cc(N/C=C(\C(=O)NC2CCC2)C(=O)c2ccc(Cl)cc2Cl)no1 — EC50 (Gamma-aminobutyric acid receptor subunit alpha-4/beta3/delta (Homo sapiens, UniProt O14764+P28472+P48169); GABA current potentiation, positive modulator, two-electrode voltage clamp; Xenopus laevis oocytes; 30 s preincubation, with: GABA EC10): 140 ± 10 nM
Cc1ccc2ccc3ccc[n+]4c3c2[n+]1[Ir-3]412([c]3ccccc3-c3ccc4ccc(Cl)cc4[n+]31)[c]1ccccc1-c1ccc3ccc(Cl)cc3[n+]12.F[P-](F)(F)(F)(F)F — EC50 (CDK9 with cyclin T1; enzyme activity, inhibitor): 316 nM
COc1ccc(OC[C@H]2c3cccn3CC(=O)N2Cc2cccc(F)c2)cc1 — EC50 (Ionotropic glutamate receptor NMDA 1/2D (Rattus norvegicus, UniProt P35439+Q62645); ion current, agonist, two-electrode voltage clamp; oocytes): 1700 nM
CCOC(=O)C(C)(C)C(C)O (stereo not drawn) — EC50 (PPARA (Homo sapiens, UniProt Q07869); coactivator recruitment, agonist, TR-FRET): 35900 nM
COc1ccc(C(=O)/C=C(\O)C(F)(F)C(F)(F)F)c(O)c1 — EC50 (Formate-nitrite transporter (Plasmodium falciparum, UniProt O77389); cell viability, resazurin; yeast expressing Formate-nitrite transporter; 72 h, L-lactate medium): 70 nM
Cc1cc[n+]2c(c1)-c1cc(C)cc[n+]1[Ir-3]213([c]2ccccc2-c2ccc4ccc(Cl)cc4[n+]21)[c]1ccccc1-c1ccc2ccc(Cl)cc2[n+]13.F[P-](F)(F)(F)(F)F — EC50 (CDK9 with cyclin T1; enzyme activity, inhibitor): 13.6 nM
CCC1(O)C2(C)CCC(C2)C1(C)C (stereo not drawn) — EC50 (OR11A1 (Homo sapiens, UniProt Q9GZK7); cAMP, agonist, luciferase): 10100 nM
CCC(=O)N(C)c1ccc(Cl)c(Cl)c1 — EC50 (NR1I2; reporter gene, agonist, luciferase): 38000 nM and 38100 nM
O=C(NC1CCC1)[C@H](Cc1c[nH]c2ccccc12)NC(=O)[C@H](CCCCNC(=S)NCCc1noc(=O)[nH]1)NS(=O)(=O)c1cccc(F)c1 — EC50 (SIRT5 (Homo sapiens, UniProt Q9NXA8); thermal stabilisation, ITDRF-CETSA; HEK293T; 2 h, 52 °C): > 10000 nM
O=C(C1CCCCC1)N1CC(=O)N2CCc3ccccc3[C@@H]2C1 — EC50 (Transient receptor potential channel TRPM(PZQ) (Schistosoma haematobium, UniProt A0A922ISR7); cytoplasmic Ca2+ increase, agonist, FLIPR; HEK293 transiently expressing target): 221 ± 85 nM
Cc1cc(C)cc(COc2cc3c(cc2OCc2cc(C)cc(C)c2)C2CC(O)CC(C)N2CC3)c1 (stereo not drawn) — EC50 (Rab GDP dissociation inhibitor beta (Homo sapiens, UniProt P50395); Rab1A extraction from membranes, inhibitor; PC-3 membrane extract; with: Rab GDP dissociation inhibitor beta 1 µM): 4960 nM
O=C(O)COc1cccc(NC(=O)c2cc(-c3cccc(F)c3)ccc2F)c1 — EC50 (PTGER1; calcium signal, agonist, fluorescence): > 10000 nM
COc1cc[n+]2c(c1)-c1cc(OC)cc[n+]1[Ir-3]213([c]2ccccc2-c2ccc4ccc(Cl)cc4[n+]21)[c]1ccccc1-c1ccc2ccc(Cl)cc2[n+]13.F[P-](F)(F)(F)(F)F — EC50 (CDK9 with cyclin T1; enzyme activity, inhibitor): > 1000 nM
NC(N)=NCCC[C@H](NC(=O)[C@H](Cc1ccccc1)NC(=O)[C@@H]1CCCN1C(=O)[C@H](CO)NC(=O)[C@H](Cc1ccccc1)NC(=O)CNC(=O)[C@@H]1CCCN1C(=O)[C@@H]1CCCN1C(=O)[C@@H](N)CCCN=C(N)N)C(=O)O — EC50 (B2 bradykinin receptor (Rattus norvegicus, UniProt P25023); inositol phosphate accumulation, agonist; primary rat trigeminal ganglion cells; 15 min, 37 °C, with: 20 mM LiCl): 0.5 nM
O=C(c1cc2c(s1)CCCCC2)N1CCC(n2c(=O)[nH]c3ccccc32)CC1 — EC50 (TRPC6 (Homo sapiens, UniProt Q9Y210, N702Q); channel activation, agonist, whole-cell patch clamp): 3070 ± 810 nM
COc1ccc(C(=O)Nc2c(-c3cccs3)nc3ccccn23)cc1 — EC50 (Gamma-aminobutyric acid receptor subunit alpha-4/beta-2/delta (Homo sapiens, UniProt O14764+P47870+P48169); positive allosteric modulator, FLIPR membrane potential; HEK293 Flp-In; with: GABA EC20): 2910 nM
C[C@@H]1NC(=O)[C@H](CC(N)=O)NC(=O)[C@H](Cc2c[nH]c3ccccc23)NC(=O)[C@H](CCCNC(=N)N)NC(=O)[C@@H](Cc2ccccc2)NC(=O)[C@H](Cc2c[nH]cn2)NC(=O)[C@@H](NC(=O)[C@@H](N)Cc2ccc(O)cc2)Cn2cc(nn2)C[C@@H](C(=O)N[C@@H](Cc2ccc(O)cc2)C(N)=O)NC(=O)[C@H](Cc2ccccc2)NC1=O — EC50 (Melanocortin receptor 3 (Mus musculus, UniProt P33033); agonist): 28 ± 5.4 nM

A few entries again:
CCCCCCCOc1ccc(CC[C@](N)(CO)COP(=O)(O)O)cc1C(F)(F)F — EC50 (S1PR4 (Homo sapiens, UniProt O95977); calcium signal, agonist): 122 nM
Cc1ccc2ccc3ccc[n+]4c3c2[n+]1[Ir-3]412([c]3ccccc3-c3ccc4ccc(Cl)cc4[n+]31)[c]1ccccc1-c1ccc3ccc(Cl)cc3[n+]12.F[P-](F)(F)(F)(F)F — EC50 (CDK9 with cyclin T1; enzyme activity, inhibitor): 316 nM
COc1ccc(OC[C@H]2c3cccn3CC(=O)N2Cc2cccc(F)c2)cc1 — EC50 (Ionotropic glutamate receptor NMDA 1/2D (Rattus norvegicus, UniProt P35439+Q62645); ion current, agonist, two-electrode voltage clamp; oocytes): 1700 nM
